Measured values pooled from the literature.
Numbers after ± are the reported error.

SMILES	assay	system	setting	how to read	endpoint	value
Fc1ccc([C@@H]2CCNC[C@H]2COc2ccc3c(c2)OCO3)cc1	–	human, CYP2D6 intermediate metabolizers, plasma	oral, 20 mg, steady state	–	peak-trough fluctuation	43%
NC1(C(=O)N[C@@H](CCO)c2ccc(Cl)cc2)CCN(c2nc[nH]c3nccc2-3)CC1	–	metastatic CRPC patients	320 mg b.i.d., grade 3 to 4, treatment-related, together with: enzalutamide 160 mg daily	–	incidence of Fatigue	0%
Cc1ccc(Sc2ccccc2N2CCNCC2)c(C)c1	measured: Pollakiuria	healthy adult men	oral, 20 mg daily, 12 days	–	participants with TEAE	0%
CC#CC(=O)N1CC[C@@H](n2c(=O)n(-c3ccc(Oc4ccccc4)cc3)c3c(N)ncnc32)C1	–	human, fasting, plasma	oral, 160 mg once daily, cycle 1 day 1	–	Tmax, median	2.85 h
O=C(O)CC[C@H](NC(=O)N[C@@H](CCCCNC(=O)[C@H](Cc1ccc2ccccc2c1)NC(=O)[C@H]1CC[C@H](CNC(=O)CN2CCN(CC(=O)O)CCN(CC(=O)O)CCN(CC(=O)O)CC2)CC1)C(=O)O)C(=O)O	–	male BALB/c nude mice, LS174T-PSMA xenografts, liver	intravenous, 0.3 nmol, 2 h, radiolabelled (111In or 99mTc)	relative to: tumour over liver	tumour-to-tissue ratio	267 ± 73.5
CCc1cc(C(=O)NC)c2nccc(N3CCc4c(cc(Cn5ccnc5)cc4-c4cn(C)nc4C(F)(F)F)C3=O)c2c1	measured: HDW	Sprague Dawley rat	oral, 100 mg/kg once daily, 7 days	relative to: vehicle	change in clinical chemistry or haematology parameter	8.04%
O=C(c1cccnc1-c1ccncc1)N1CCC(O)(Cc2ccccc2)CC1	continuous Holter ECG	healthy Japanese adults	oral, 1200 mg, 12 h postdose, least-squares mean	–	placebo-corrected change in heart rate	-4.5 bpm
CC(C)NCCCC[C@@H]1NC(=O)[C@H](Cc2ccc(O)cc2)NC(=O)[C@H](Cc2ccccc2)NC(=O)CC[C@H](C(=O)N[C@@H](CCCCNC(C)C)C(=O)N[C@@H](CCCCNC(=O)[C@H](CCC(=O)O)NC(=O)[C@H](CCC(=O)O)NC(=O)[C@H](CCC(=O)O)NC(=O)CN2CCN(CC(=O)O)CCN(CC(=O)O)CCN(CC(=O)O)CC2)C(N)=O)NC(=O)CNC(=O)[C@H](Cc2ccc3ccccc3c2)NC(=O)[C@@H](CCCNC(=N)N)NC1=O [gallium-68 labelled]	–	mouse with JeKo-1 xenograft, lung	intravenous, 1 h	–	tissue uptake	0.73 %ID/g
C=CCN1CC(=O)N2[C@@H](Cc3ccc(O)cc3F)C(=O)N(Cc3cccc(N4CC(N5CCN(CC)CC5)C4)n3)C[C@@H]2N1C(=O)NCc1ccccc1	measured: Diarrhea	advanced solid tumour patients	all doses, dose-escalation part, grade ≥3	–	treatment-related adverse events	0%
C[C@@H](Oc1ccc(S(C)(=O)=O)cc1C(=O)N1C[C@@H]2C[C@]2(c2cc(C(F)(F)F)on2)C1)C(F)(F)F	LC-MS/MS	young human subjects, plasma	oral, 10 mg once daily, steady state, multiple doses	–	Vz/F	329 L
Cc1cc(Nc2ncnc3ccc(NC4=NC(C)(C)CO4)cc23)ccc1Oc1ccn2ncnc2c1	–	human, plasma	oral, 300 mg, day 1, single dose alone	–	Cmax, geometric mean	302 ng/mL
CC[C@H](C)[C@H](NC(=O)[C@H](Cc1ccccc1)NC(=O)[C@H](CCC(=O)O)NC(=O)[C@H](CCCCNC(=O)COCCOCCNC(=O)COCCOCCNC(=O)CC[C@H](NC(=O)CCCCCCCCCCCCCCCCC(=O)O)C(=O)O)NC(=O)[C@H](C)NC(=O)[C@H](C)NC(=O)[C@H](CCC(N)=O)NC(=O)CNC(=O)[C@H](CCC(=O)O)NC(=O)[C@H](CC(C)C)NC(=O)[C@H](Cc1ccc(O)cc1)NC(=O)[C@H](CO)NC(=O)[C@H](CO)NC(=O)[C@@H](NC(=O)[C@H](CC(=O)O)NC(=O)[C@H](CO)NC(=O)[C@@H](NC(=O)[C@H](Cc1ccccc1)NC(=O)[C@@H](NC(=O)CNC(=O)[C@H](CCC(=O)O)NC(=O)C(C)(C)NC(=O)[C@@H](N)Cc1cnc[nH]1)[C@@H](C)O)[C@@H](C)O)C(C)C)C(=O)N[C@@H](C)C(=O)N[C@@H](Cc1c[nH]c2ccccc12)C(=O)N[C@@H](CC(C)C)C(=O)N[C@H](C(=O)N[C@@H](CCCNC(=N)N)C(=O)NCC(=O)N[C@@H](CCCNC(=N)N)C(=O)NCC(=O)O)C(C)C	QT interval corrected for heart rate, 12-lead Holter ECG	healthy human subjects	subcutaneous, 1.5 mg once weekly, 12 h post-dose, steady state	relative to: placebo, time-matched baseline	placebo-subtracted change in QTcI	-4.1 ms
Cc1ccc(-n2nc(Br)cc2C(=O)NCc2nocc2C(=O)O)cc1	colloidal aggregate formation, dynamic light scattering	50 mM potassium phosphate buffer	200 µM, pH 7.0, 1% DMSO	higher = more aggregation	DLS scattered light intensity	404000 counts/s
CCCCCCCOc1ccc(CCC(N)(CO)CO)cc1C(F)(F)F.Cl	–	healthy men, urine	oral, 0.25 mg once daily, day 21, fed state	relative to: dose	urinary excretion	0.111%
C[C@@H]1CS/C(=N\NC(=O)C(=O)[C@@H](NC(=O)C2CCCCCC2)C2CCOCC2)N1C	–	healthy postmenopausal women	dose not given	relative to: subjects	discontinuation due to adverse events	2%
O=C(O)CCCCCCCCCCCCCCCCC(=O)O	–	human, plasma	endogenous baseline diurnal	–	daily mean concentration	86.4 ± 5.3 nM
COc1ccnc(C(=O)NC(CO)C(=O)O)c1O (racemic)	soil adsorption	clay soil	pH 7.6, organic carbon 1.7 %	–	Freundlich coefficient KF	6.08 mL/g
Cc1cc(Nc2ccc(S(F)(F)(F)(F)F)cc2)n2nc(C(C)(F)F)nc2n1	–	Plasmodium falciparum malaria patients	oral, 250 mg	–	adverse event Fatigue	18.2%
C=CC(=O)Nc1cc(Nc2nccc(-c3cn(C)c4ccccc34)n2)c(OC)cc1N(C)CCN(C)C	storage stability	human dried blood spots	5 h, on ice, medium QC level	–	recovery	81.1%
CCCCC1=NC2(CCCC2)C(=O)N1Cc1ccc(-c2ccccc2S(=O)(=O)Nc2noc(C)c2C)c(COCC)c1	–	healthy adult volunteers, plasma	oral, 1600 mg, single dose, fasted, crushed tablet	–	AUC(0-inf)	206000 ng·h/mL
O=C1CCCN1c1ccc(Cl)c(NS(=O)(=O)c2cccc(Cl)c2O)c1	colloidal aggregate formation, dynamic light scattering	50 mM potassium phosphate buffer	200 µM, pH 7.0, 1% DMSO	higher = more aggregation	DLS scattered light intensity	464000 counts/s
CC(C)[C@H](N)C(=O)NCCCS(=O)(=O)O	–	human both sexes, plasma	oral, 256.5 mg once daily, day 1, fasted capsule	–	AUC(0-12)	9830 ng·h/mL
Cc1ccc([C@@H]2O[C@H](CO)[C@@H](O)[C@H](O)[C@H]2O)cc1Cc1ccc(-c2ccc(F)cc2)s1	measured: inorganic phosphorus	Japanese type 2 diabetes patients	25 mg, day 18, 24 h urine collection	relative to: baseline	urinary phosphate excretion change	-90.2 mg
O=C1NCCc2ccc(CNS(=O)(=O)c3cc(Cl)cc(Cl)c3O)cc21	colloidal aggregate formation, dynamic light scattering	50 mM potassium phosphate buffer	200 µM, pH 7.0, 1% DMSO	higher = more aggregation	DLS scattered light intensity	234000 counts/s
CCn1cc(C(=O)N2CCOCC2)c(=O)c2cc(NC3Cc4ccccc4C3)cnc21	–	human, fed	oral suspension, 300 mg/day twice daily, day 1, arithmetic mean	–	AUC(0-12)	4480 ng·h/mL
COc1ccc(Cl)cc1C(=O)NCCc1ccc(S(=O)(=O)NC(=O)NC2CCCCC2)cc1 [carbon-11 labelled]	population PK model	humans	including SLCO1B1-mutated subject	–	liver to blood rate constant	19 h⁻¹
NC(=O)c1cc(Oc2ccc(NC(=O)Nc3ccc(Cl)c(C(F)(F)F)c3)c(F)c2)cc[n+]1[O-]	–	wild-type mice, plasma	oral, molecular weight corrected, together with: regorafenib single dose	–	metabolite to parent AUC ratio	0.36%
CN[C@@H]1COc2c(S(=O)(=O)NC(=O)Nc3c4c(cc5c3CCC5)CCC4)cnn2C1	–	healthy human volunteers, urine	oral, 600 mg, high-fat meal	–	fraction excreted in urine 0-48 h	0.119

SMILES	assay	system	setting	how to read	endpoint	value
COC(=O)C(Cc1cccc(C)c1I)NC(=O)CNCc1ccccc1 (stereo not shown)	–	beagle dog	1 µM	–	half-life	> 3 h
CNC(=O)c1ccc(-c2cnc3ncc(Cc4ccc5ncccc5c4)n3n2)cc1F	CTCAE v4.0, any causality	human gastric cancer patients	oral, 600 mg twice daily, expansion cohort at RP2D	–	non-cardiac chest pain incidence (all grades)	0%
CCOc1c([C@H](C)n2nc(C)c3c(N)ncnc32)cc(Cl)c(F)c1[C@@H]1CNC(=O)C1	measured: QTcF change ≤30 ms	previously treated B-cell malignancy	oral, 10 mg once daily, baseline QTcF ≤450 ms	relative to: baseline	ECG observations	100%
O=S(=O)(Nc1ccc(-c2ccco2)cc1F)c1cccc(Cl)c1O	colloidal aggregate formation, dynamic light scattering	50 mM potassium phosphate buffer	200 µM, pH 7.0, 1% DMSO	higher = more aggregation	DLS scattered light intensity	1.24e+06 counts/s
COc1ccc2c(c1)CCc1c(C(=O)NCCc3nc4cc(C)ccc4[nH]3)n[nH]c1-2	haemolysis	sheep erythrocytes	1 h, pH 7.5	–	HC50	> 128 µg/mL
C[C@@H](N)C1CCN(S(=O)(=O)c2cccc3cnccc23)CC1	–	healthy volunteers, plasma	oral, 150 mg, fed	–	CL/F	3700 L/h
Cc1ccc(O)c(-n2nc3ccccc3n2)c1	–	human aged 6-11 years	concentration not given, spray sunscreen, 95th percentile	–	daily dermal exposure dose	3640 ng/kg/day
O=C(Nc1nc2cccc(-c3ccc(CN4CCS(=O)(=O)CC4)cc3)n2n1)C1CC1	measured: blood triglycerides increased	rheumatoid arthritis patients	oral, 200 mg once daily, 4 weeks, any relatedness	–	treatment-emergent adverse events	0%
CC(=O)NC[C@H]1CN(c2ccc(N3CCOCC3)c(F)c2)C(=O)O1	–	human whole blood	concentration not given, 48 h, 4 °C	–	deviation from nominal concentration	0.6%
COc1ccc([C@@H](O)c2cc(-c3ncnc4cc(N5CCOCC5)ccc34)c(F)cc2Cl)nn1	–	locally advanced rectal cancer patients	250 mg, together with: capecitabine and radiotherapy	–	asthenia TEAE incidence	50%
N#Cc1ccc2c(c1)[C@H]1CCCN(C(=O)c3ccc4[nH]cnc4c3)[C@H]1C2	–	human males	240 mg, end of trial	–	SHBG level	24.8 nmol/L
Nc1ccn([C@@H]2O[C@H](CO)[C@@H](O)C2(F)F)c(=O)n1	measured: dFdU	human, plasma	intravenous, 1000 mg/m^2, together with: before paricalcitol	–	Tmax, mean	1.39 h
OC[C@H]1O[C@@H](c2ccc(F)c(Cc3cc4ccccc4s3)c2)[C@H](O)[C@@H](O)[C@@H]1O	–	Japanese patients, type 1 diabetes	oral, 50 mg/day, onset day 9	relative to: patients	hypoglycaemia-related adverse event	7%
O=C(O)CCC(=O)O.[2H]C([2H])([2H])Oc1cc(C)c2[nH]ccc2c1CN1CC[C@@H](C2CC2)C[C@H]1c1ccc(C(=O)O)cc1	–	healthy Chinese subjects	100 mg, single ascending dose	–	TEAE sinus bradycardia	0%
CO[C@H]1C[C@@H]2CC[C@@H](C)[C@@](O)(O2)C(=O)C(=O)N2CCCC[C@H]2C(=O)O[C@H]([C@H](C)C[C@@H]2CC[C@@H](O)[C@H](OC)C2)CC(=O)[C@H](C)/C=C(\C)[C@@H](O)[C@@H](OC)C(=O)[C@H](C)C[C@H](C)/C=C/C=C/C=C/1C	–	healthy adult horses	oral, 0.06 mg/kg, 10 h	–	rectal temperature	37.7 ± 0.5 °C
CC(C)(C(=O)N1CCOc2c(C#N)cncc2C1)C(F)F	measured: medical device site dermatitis	human, both sexes	oral, 15 mg twice daily, 14 days, multiple ascending dose	–	subjects with TEAE	0%
Cc1c(-c2ccc(N3CCc4cccc(C(=O)Nc5nc6ccccc6s5)c4C3)nc2C(=O)O)cnn1CC12CC3(C)CC(C)(C1)CC(OCCNCC[C@H](O)CO)(C3)C2	–	beagle dog, male, anaesthetised	intravenous infusion, 0.01 mg/kg/min, 90 min	relative to: baseline	mean arterial pressure change	1 mmHg
c1ccc(-c2nc(N3CCC(c4ccccn4)C3)c3ccccc3n2)nc1 (stereo not shown)	–	female Balb/c mice, blood	intravenous, 2 mg/kg, 1 h, mean, together with: 1-aminobenzotriazole co-dosed	–	blood concentration	1370 ng/mL
CCc1ccc(C(=O)Oc2ccc(C#N)c(F)c2)cc1	measured: compound	human pregnant women, male fetuses, maternal serum	dose not given, paired maternal-cord samples, mean	–	concentration	5.33 ng/mL
C/C(=N\c1ccc(O)cc1)c1cc2ccccc2n1C	–	rat plasma	1.5 ng/mL, 4 h, room temperature	relative to: nominal concentration	remaining compound	93.1 ± 6%
Cn1cc(Nc2nccc(-c3ccc4c(c3)CN(C3COC3)CC[C@H]4NC(=O)c3cn(C(C)(C)C)nn3)n2)cn1	measured: class-switched memory B cells	human, clinical trial, whole blood	50 mg twice daily, follow-up	–	percent change from baseline	4.86%
Cc1nc(-c2ccc(OCC(C)C)c(C#N)c2)sc1C(=O)O	–	healthy Chinese subjects	oral, 40 mg, fed, single dose	–	subjects with serious adverse events	0%
CNCc1ccc(-c2cc(-c3nc(-c4ccc(S(=O)(=O)C(C)C)cc4)cnc3N)on2)cc1	–	female BALB/c mice	single dose, dose not given, 48 h, together with: total body irradiation 6 Gy	–	lymphocytes in white blood cells	45.8%
COc1ccc(C[C@@H](C)[C@@H](C)Cc2ccc(OC)c(OC)c2)cc1OC	–	beagle dog, male, plasma	oral, 1000 mg/kg/day, day 28, 28-day repeat-dose toxicity study	–	half-life	9.3 ± 0.072 h
COc1ccnc(C(=O)N[C@H]2COC(=O)[C@H](Cc3ccccc3)[C@@H](O)[C@H](C)OC2=O)c1O	soil adsorption	clay soil	pH 7.6, organic carbon 1.7 %	–	Freundlich coefficient KF	12.4 mL/g
N#Cc1ccccc1CSCCNC(=O)C1(C(=O)O)CC=CCC1 (stereo not shown)	colloidal aggregate formation, dynamic light scattering	50 mM potassium phosphate buffer	200 µM, pH 7.0, 1% DMSO	higher = more aggregation	DLS scattered light intensity	546000 counts/s
O=c1[nH]c(=O)n([C@@H]2O[C@H](CO)[C@@H](O)[C@@H]2F)cc1CCCCC[18F]	–	nude mice, RG2 tumour, blood	intravenous, dose not given, 2 h, co-injection	–	blood concentration	0.09 ± 0.03 %ID/g
